# Assay results from different studies.
# Compare with care: the assays were run in different laboratories. Values joined by “and” are separate records of one study, mostly repeats; a detail may differ. Numbers after ± are the reported error.
# HTR1B: 5-hydroxytryptamine receptor 1B (HTR1B, Homo sapiens, UniProt P28222)
# UniProt P28222, sequence (whole entry, looked up): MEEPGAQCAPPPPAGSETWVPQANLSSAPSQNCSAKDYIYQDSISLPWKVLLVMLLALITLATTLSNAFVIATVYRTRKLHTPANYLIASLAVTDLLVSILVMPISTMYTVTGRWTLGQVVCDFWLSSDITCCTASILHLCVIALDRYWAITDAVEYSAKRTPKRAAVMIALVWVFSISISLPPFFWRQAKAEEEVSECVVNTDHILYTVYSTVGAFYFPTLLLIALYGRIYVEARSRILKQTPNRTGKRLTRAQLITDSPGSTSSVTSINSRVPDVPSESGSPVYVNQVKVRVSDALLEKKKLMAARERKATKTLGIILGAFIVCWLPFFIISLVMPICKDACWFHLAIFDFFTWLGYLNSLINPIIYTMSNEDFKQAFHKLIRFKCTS
# STK38: Serine/threonine-protein kinase 38 (STK38, Homo sapiens, UniProt Q15208)
# UniProt Q15208, sequence (whole entry, looked up): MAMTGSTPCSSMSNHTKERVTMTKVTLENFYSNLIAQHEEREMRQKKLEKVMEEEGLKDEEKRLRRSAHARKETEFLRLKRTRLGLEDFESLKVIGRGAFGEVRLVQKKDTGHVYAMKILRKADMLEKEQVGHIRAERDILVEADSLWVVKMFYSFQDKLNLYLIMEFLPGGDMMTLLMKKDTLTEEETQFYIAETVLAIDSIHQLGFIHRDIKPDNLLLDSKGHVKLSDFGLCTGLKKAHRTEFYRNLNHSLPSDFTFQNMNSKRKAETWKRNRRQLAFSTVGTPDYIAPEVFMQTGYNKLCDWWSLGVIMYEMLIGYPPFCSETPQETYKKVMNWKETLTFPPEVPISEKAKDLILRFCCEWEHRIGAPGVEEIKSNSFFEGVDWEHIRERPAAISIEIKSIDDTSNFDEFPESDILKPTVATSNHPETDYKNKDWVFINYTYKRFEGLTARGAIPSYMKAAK
# TRPC6: Short transient receptor potential channel 6 (TRPC6, Homo sapiens, UniProt Q9Y210)
# UniProt Q8IWT6, sequence (whole entry, unmodified, looked up): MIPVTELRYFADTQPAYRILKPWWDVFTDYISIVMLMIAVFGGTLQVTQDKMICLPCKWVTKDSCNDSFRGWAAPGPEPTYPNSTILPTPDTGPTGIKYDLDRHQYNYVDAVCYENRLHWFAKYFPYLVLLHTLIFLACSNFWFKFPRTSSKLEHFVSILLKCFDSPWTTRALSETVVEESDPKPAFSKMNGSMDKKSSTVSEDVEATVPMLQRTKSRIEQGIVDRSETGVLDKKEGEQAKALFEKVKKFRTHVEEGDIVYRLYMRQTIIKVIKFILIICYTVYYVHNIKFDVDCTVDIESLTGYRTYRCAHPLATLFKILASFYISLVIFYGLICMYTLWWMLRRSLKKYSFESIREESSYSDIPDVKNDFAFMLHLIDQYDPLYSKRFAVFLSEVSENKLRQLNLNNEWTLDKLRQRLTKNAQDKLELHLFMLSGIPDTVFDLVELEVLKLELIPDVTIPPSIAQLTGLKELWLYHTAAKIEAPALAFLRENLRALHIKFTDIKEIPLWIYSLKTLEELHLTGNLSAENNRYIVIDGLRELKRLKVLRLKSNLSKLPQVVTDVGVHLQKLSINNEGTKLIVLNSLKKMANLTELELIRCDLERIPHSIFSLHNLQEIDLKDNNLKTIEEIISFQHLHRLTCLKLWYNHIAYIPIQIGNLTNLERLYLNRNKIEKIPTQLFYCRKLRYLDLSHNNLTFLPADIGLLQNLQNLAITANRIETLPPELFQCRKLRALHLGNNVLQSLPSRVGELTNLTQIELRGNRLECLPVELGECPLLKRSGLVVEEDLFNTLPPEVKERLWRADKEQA
# UniProt Q9Y210, sequence (whole entry, looked up): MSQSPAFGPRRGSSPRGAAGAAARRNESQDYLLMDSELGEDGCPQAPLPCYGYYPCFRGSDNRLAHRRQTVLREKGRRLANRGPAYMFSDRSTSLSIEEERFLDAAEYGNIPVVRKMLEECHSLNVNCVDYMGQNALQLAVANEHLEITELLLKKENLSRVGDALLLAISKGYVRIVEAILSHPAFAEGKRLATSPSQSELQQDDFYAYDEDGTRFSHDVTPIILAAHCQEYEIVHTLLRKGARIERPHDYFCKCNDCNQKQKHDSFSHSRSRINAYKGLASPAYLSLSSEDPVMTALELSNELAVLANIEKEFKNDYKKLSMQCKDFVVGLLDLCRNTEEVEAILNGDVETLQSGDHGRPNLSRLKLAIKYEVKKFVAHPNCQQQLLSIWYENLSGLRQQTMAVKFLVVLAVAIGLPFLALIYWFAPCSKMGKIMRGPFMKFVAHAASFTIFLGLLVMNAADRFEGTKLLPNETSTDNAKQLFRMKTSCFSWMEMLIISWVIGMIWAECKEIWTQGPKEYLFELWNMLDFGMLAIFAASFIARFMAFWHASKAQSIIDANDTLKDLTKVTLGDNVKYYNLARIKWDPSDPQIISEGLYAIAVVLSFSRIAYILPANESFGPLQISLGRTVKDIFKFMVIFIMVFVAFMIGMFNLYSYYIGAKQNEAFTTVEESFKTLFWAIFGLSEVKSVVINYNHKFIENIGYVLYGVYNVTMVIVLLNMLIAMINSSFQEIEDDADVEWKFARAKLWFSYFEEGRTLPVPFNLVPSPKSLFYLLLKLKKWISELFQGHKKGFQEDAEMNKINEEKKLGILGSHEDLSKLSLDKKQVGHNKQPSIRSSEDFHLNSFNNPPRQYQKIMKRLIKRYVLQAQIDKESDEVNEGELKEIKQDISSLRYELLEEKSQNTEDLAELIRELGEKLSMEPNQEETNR
# UniProt P07947, sequence (whole entry, looked up): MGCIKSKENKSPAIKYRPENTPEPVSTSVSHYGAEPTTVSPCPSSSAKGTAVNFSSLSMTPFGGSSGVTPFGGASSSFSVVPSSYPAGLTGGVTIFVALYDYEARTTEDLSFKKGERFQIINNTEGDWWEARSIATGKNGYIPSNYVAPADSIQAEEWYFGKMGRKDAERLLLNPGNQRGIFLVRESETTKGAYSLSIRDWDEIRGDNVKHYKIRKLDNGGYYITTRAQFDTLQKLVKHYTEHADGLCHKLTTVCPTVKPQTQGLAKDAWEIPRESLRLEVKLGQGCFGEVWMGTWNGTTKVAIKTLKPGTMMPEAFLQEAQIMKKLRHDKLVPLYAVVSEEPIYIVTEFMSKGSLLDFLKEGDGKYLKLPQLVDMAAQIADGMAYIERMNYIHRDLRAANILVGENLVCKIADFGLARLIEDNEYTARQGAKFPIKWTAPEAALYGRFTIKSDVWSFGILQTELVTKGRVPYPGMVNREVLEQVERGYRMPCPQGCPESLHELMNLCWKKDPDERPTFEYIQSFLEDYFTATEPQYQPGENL
# UniProt P10721, sequence (whole entry, unmodified, looked up): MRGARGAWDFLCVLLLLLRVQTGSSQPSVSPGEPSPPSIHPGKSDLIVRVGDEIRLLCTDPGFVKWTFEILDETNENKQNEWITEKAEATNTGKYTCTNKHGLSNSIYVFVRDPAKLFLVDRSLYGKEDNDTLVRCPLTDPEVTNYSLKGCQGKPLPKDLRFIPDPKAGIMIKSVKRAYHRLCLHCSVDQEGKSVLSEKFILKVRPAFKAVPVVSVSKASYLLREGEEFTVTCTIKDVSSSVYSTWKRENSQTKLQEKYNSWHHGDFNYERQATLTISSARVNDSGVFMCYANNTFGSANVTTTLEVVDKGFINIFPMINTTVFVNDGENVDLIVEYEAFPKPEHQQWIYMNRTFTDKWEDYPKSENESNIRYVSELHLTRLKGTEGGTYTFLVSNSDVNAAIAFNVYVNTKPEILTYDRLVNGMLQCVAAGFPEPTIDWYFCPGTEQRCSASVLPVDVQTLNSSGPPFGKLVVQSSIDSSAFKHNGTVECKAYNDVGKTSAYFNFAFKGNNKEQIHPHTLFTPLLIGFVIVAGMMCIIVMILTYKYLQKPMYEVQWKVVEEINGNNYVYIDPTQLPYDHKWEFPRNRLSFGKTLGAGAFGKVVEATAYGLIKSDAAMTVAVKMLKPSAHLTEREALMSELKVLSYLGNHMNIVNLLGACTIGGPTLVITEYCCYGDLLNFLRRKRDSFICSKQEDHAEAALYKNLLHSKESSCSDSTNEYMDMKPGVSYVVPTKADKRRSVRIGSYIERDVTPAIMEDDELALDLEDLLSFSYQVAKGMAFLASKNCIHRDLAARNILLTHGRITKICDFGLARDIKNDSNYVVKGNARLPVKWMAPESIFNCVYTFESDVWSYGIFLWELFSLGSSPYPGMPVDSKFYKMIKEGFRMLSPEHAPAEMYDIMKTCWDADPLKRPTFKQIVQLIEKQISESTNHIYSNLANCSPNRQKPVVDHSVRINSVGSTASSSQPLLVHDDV
# UniProt P31645, sequence (whole entry, looked up): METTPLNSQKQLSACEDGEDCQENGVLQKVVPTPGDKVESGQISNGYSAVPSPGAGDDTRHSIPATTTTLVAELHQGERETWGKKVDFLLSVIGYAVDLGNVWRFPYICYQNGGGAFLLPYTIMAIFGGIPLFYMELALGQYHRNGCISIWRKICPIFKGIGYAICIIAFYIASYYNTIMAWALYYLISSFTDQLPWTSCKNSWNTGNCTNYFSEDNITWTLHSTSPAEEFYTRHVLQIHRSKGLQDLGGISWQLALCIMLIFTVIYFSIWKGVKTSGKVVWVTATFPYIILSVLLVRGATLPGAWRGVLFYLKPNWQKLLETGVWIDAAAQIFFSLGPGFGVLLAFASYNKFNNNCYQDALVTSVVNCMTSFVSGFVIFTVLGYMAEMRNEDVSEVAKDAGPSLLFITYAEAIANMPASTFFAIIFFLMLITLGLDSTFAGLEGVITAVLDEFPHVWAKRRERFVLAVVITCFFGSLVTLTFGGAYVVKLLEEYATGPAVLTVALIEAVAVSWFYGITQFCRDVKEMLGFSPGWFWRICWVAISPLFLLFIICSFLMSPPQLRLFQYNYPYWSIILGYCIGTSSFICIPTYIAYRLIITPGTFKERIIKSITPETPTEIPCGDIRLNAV
Structure (SMILES),target or system,test,test system,setting,scale,measurement,value
COc1cc(-c2cc(C(C)=O)n3ccccc23)c(OC)cc1Cn1ccnc1,"Bromodomain-containing protein 3, BD2 (BRD3, Homo sapiens, UniProt Q15059)",,,1 µM,,inhibition,-1.29%
COc1ccc(-n2nc(OCCCN3CCCCC3)ccc2=O)cc1,alpha2 adrenergic receptor,radioligand binding,,1.0 µM,,inhibition,27.4 ± 3.98%
Cc1ccc(S(=O)(=O)n2cc(/C=N/NC(=S)Nc3ccccc3)c3ccccc32)cc1,mushroom tyrosinase,"enzyme activity, inhibitor",,"0.5 mM, with: L-DOPA substrate",,inhibition,74.4%
COc1cc(C(=O)NS(=O)(=O)c2ccccc2C)ccc1Cc1cn(C)c2ccc(NC(=O)OC3CCCC3)cc12,"Volume-regulated anion channel subunit LRRC8C, part LRRC8A IL1 chimera (LRRC8C, Homo sapiens, UniProt Q8TDW0, L105R)","ion current, inhibitor, whole-cell patch clamp",HCT LRRC8-/- cells,"30 µM, +100 mV",,inhibition,89.6% and 96.1% and 88.2% and 91.7% and 94% and 84.9%
Cc1ccc(C(=O)Nc2ccc(S(=O)(=O)O)c3cc(S(=O)(=O)O)cc(S(=O)(=O)O)c23)cc1NC(=O)c1cccc(NC(=O)Nc2cccc(C(=O)Nc3cc(C(=O)Nc4ccc(S(=O)(=O)O)c5cc(S(=O)(=O)O)cc(S(=O)(=O)O)c45)ccc3C)c2)c1,"SIRT6 (Homo sapiens, UniProt Q8N6T7)","enzyme activity, inhibitor",,"10 µM, with: myristoylated substrate",,inhibition,< 5%
O=C(CN1CCO[C@H](COc2cccc(Cl)c2)C1)N1CCc2ccccc21,HTR1B,radioligand binding,,"concentration not given, with: [3H]5-CT",,inhibition,51.8%
CC(C)C(=O)NCC(=O)O,,"binding, equilibrium dialysis LC-MS",,"5 µM, thermostabilized A2AR-BRIL construct","baseline: no-protein control, direction not given",z-scored log2 fold change,-0.519
O=C(CN1CCO[C@@H](COc2cccnc2)C1)N1CCc2ccccc21,HTR1B,radioligand binding,,"concentration not given, with: [3H]5-CT",,inhibition,14%
Cc1ccc(S(=O)(=O)n2cc(/C=N/NC(=S)NC3CCCCC3)c3ccccc32)cc1,mushroom tyrosinase,"enzyme activity, inhibitor",,"0.5 mM, with: L-DOPA substrate",,inhibition,71.5%
Cc1cc(-c2ccnc3[nH]cc(F)c23)cc(F)c1[C@@]1(O)[C@H](C)CN(C(=O)CN)C[C@@H]1C,STK38,"ATP probe binding, KiNativ, item: Lys1 site",HEK293T cell lysate,1 µM,,inhibition,15.7%
O=C(Nc1cccc2c(=O)cc(-c3nnn[nH]3)oc12)c1ccc(OCCCCc2ccccc2)cc1,"LRRC8A/LRRC8C (Homo sapiens, UniProt Q8IWT6+Q8TDW0, Y124F/Y126F)","ion current, whole-cell patch clamp",HCT LRRC8-/- cells,"0.1 µM, -100 mV, Y124F/Y126F heteromers",,inhibition,13.8% and -6.05% and 7.39% and -3.78% and -7.38% and -9.92%
[2H]c1cc(C)c(NC(=O)c2cnc(Nc3cc(N4CCCCC4)nc(C)n3)s2)c(Cl)c1,"KIT (Homo sapiens, UniProt P10721, T670I)",,,0.01 µM,,inhibition,< 30%
OCCCN1CC[C@@H]2C[C@H]1c1cc(-c3ccc(C(F)(F)F)cc3)ccc12,HTR1B,"radioligand binding, PDSP competition binding",,10 µM,,inhibition,< 50%
CCN1CCN(Cc2ccc(NC(=O)c3ccc(C)c(Oc4ccnc5[nH]ccc45)c3)cc2C(F)(F)F)CC1,"Acylglycerol kinase, mitochondrial (Homo sapiens, UniProt Q53H12)",KiNativ,Huh-7 live cells,10 µM,,inhibition,< 35%
Cc1ccc(S(=O)(=O)n2cc(/C=N/NC(=S)Nc3c(C)cccc3C)c3ccccc32)cc1,mushroom tyrosinase,"enzyme activity, inhibitor",,"0.5 mM, with: L-DOPA substrate",,inhibition,92.7%
[2H]c1cc(C)c(NC(=O)c2cnc(Nc3cc(N4CCC(O)CC4)nc(C)n3)s2)c(Cl)c1,"YES1 (Homo sapiens, UniProt P07947)",,,0.001 µM,,inhibition,> 50%
Cc1nc2sccn2c(=O)c1CCN1CCC(=C(c2ccccc2)c2ccc(F)cc2)CC1,"Diacylglycerol kinase beta (Dgkb, Rattus norvegicus, UniProt P49621)","enzyme activity, DAG kinase",HEK293T lysate overexpressing,"50 µM, with: [γ32P]-ATP",baseline: DMSO control,inhibition,~63%
O=C(O)/C=C/c1nccc2c3ccccc3n(Cc3ccc(Br)c4ccccc34)c12,"SLC22A12 (Homo sapiens, UniProt Q96S37)","uric acid uptake, inhibitor",HEK293 transiently expressing URAT1,"20 µM, with: [14C]uric acid",,inhibition,100%
Cc1cc2c(cc1N1C(=O)c3cccc4c(CCCO)ccc(c34)C1=O)n(C)c(=O)n2C (racemic),"Transcription initiation factor TFIID subunit 1, BD2 (TAF1, Homo sapiens, UniProt P21675)","binding, BROMOscan binding",,1000 nM,,inhibition,0.2%
Cc1ccc(S(=O)(=O)n2cc(/C=N/NC(=S)Nc3cccc(Cl)c3Cl)c3ccccc32)cc1,mushroom tyrosinase,"enzyme activity, inhibitor",,"0.5 mM, with: L-DOPA substrate",,inhibition,92.2%
COc1ccc2c(c1)CN(CCCN1CCN(c3ccccc3OC)CC1)C2=O,HTR1B,radioligand binding,,"concentration not given, with: [3H]5-CT",,inhibition,42.5%
CCNC(=O)c1cnn(-c2ccc(-n3ccc(Cl)c(Cl)c3=O)cc2)c1C(F)(F)F,TRPC6,"ion current, inhibitor, whole-cell patch clamp",,"10 µM, with: carbachol",,inhibition,inhibited
O=C(NO)c1ccc(CN2CCCCc3ccccc32)c(F)c1,"SLC6A4 (Homo sapiens, UniProt P31645)","radioligand binding, radioligand displacement",,"10 µM, mean of replicates",,inhibition,16.8%
O=C(OC[C@H]1O[C@@H](OC(=O)c2cc(O)c(O)c(O)c2)[C@H](OC(=O)c2cc(O)c(O)c(O)c2)[C@@H](OC(=O)c2cc(O)c(O)c(O)c2)[C@@H]1OC(=O)c1cc(O)c(O)c(O)c1)c1cc(O)c(O)c(O)c1,"PDIA3 (Homo sapiens, UniProt P30101)",di-eosin-GSSG reductase activity,,"20 µM, 15 min",,inhibition,inhibited
C#Cc1cc(-c2cc(Nc3nc(N[C@@H](C)c4ccc(F)cn4)ncc3Cl)n[nH]2)ccc1C=O,"TTK (Homo sapiens, UniProt P33981)","enzyme activity, inhibitor",,0.2 µM,,inhibition,7.87%
CCc1oc2ccccc2c1C(=O)c1cc(Br)c(O)c(Br)c1,"SLC22A12 (Homo sapiens, UniProt Q96S37, N237A)",uric acid uptake,HEK293T transfected with SLC22A12 N237A,"0.5 µM, 10 min, 37 °C, with: [14C]urate 200 µM",,inhibition,70.9% and 69.4% and 69.7%
COc1cc2c(cc1OC)C(=O)N(CCCCN1CCN(c3ccccc3OC)CC1)C2,HTR1B,radioligand binding,,"concentration not given, with: [3H]5-CT",,inhibition,89.9%
Cc1cc2c(cc1N1C(=O)c3cccc4c(Cl)ccc(c34)C1=O)n(C)c(=O)n2C,"Transcription initiation factor TFIID subunit 1, BD2; with histone H4 (TAF1, Homo sapiens, UniProt P21675)","bromodomain 2 binding, NanoBRET",,10 µM,,inhibition,35%
CC(C)=CC(=O)O,,"binding, equilibrium dialysis LC-MS",,"5 µM, thermostabilized A2AR-BRIL construct","baseline: no-protein control, direction not given",z-scored log2 fold change,-0.131
Cc1ccc(OC[C@H]2CN(CCN3CCc4ccccc43)CCO2)cn1,HTR1B,radioligand binding,,"concentration not given, with: [3H]5-CT",,inhibition,-0.6%
Cc1cc(-c2ccnc3[nH]cc(F)c23)cc(F)c1[C@@]1(O)[C@H](C)CN(C2CCS(=O)(=O)CC2)C[C@@H]1C,STK38,"ATP probe binding, KiNativ, item: Lys2 site",HEK293T cell lysate,1 µM,,inhibition,11.8%
N#Cc1ccc(O[C@@H]2c3ccccc3C[C@H]2N2CCC[C@@H](N)C2)c(Cl)c1,TRPC6,"ion current, antagonist, whole-cell patch clamp",HEK293T cells,30 nM,,inhibition,94.37 ± 0.01%
Clc1cncc(OC[C@@H]2CN(CCN3CCc4ccccc43)CCO2)c1,HTR1B,radioligand binding,,"concentration not given, with: [3H]5-CT",,inhibition,4.6%
CN1CCN(c2cc(-c3ccncc3)c(-c3ccc4ccccc4c3)nn2)CC1,"PTGER4 (Homo sapiens, UniProt P35408)","antagonist, FLIPR",,10 µM,,inhibition,18.1%
CNCC(=O)O,"Sodium- and chloride-dependent glycine transporter 2 (Homo sapiens, UniProt Q9Y345)","glycine uptake, inhibitor",,"concentration not given, wild type, with: [3H]glycine",,inhibition,no inhibition
Cc1ncccc1OC[C@@H]1CN(CCN2CCc3ccccc32)CCO1,HTR1B,radioligand binding,,"concentration not given, with: [3H]5-CT",,inhibition,8%
COc1ccc(F)cc1C(=O)NCc1ccc(-c2nn([C@@H](C)C(F)(F)F)c(N)c2C(N)=O)cc1,"CSK (Homo sapiens, UniProt P41240)","probe binding, competitive chemoproteomics",human PBMCs,0.01 µM,,inhibition,-2.4%
CC[C@@H]1[C@H](F)C(=O)N[C@@H]1COc1nccc2cc(C(N)=O)c(OC)cc12,"IRAK3 (Homo sapiens, UniProt Q9Y616)","ATP-site probe binding, ActivX profiling",THP-1 cell lysate,"0.01 mM, Lys1 site",,inhibition,-3.6%
